Published values gathered from unrelated publications.
Every numbered part comes from another study and shows a few of its results, in no order.

Study 1 — method: Spec-seq; molecule type: double-stranded DNA, one strand shown; sample: in vitro; tested at: not given; setting: whole probe, mean of replicates; reference: not given; direction: lower = stronger binding; quantity: relative binding energy
Target: POU, POU domain (Salpingoeca helianthica)
Constant ends, left off below: GAGTCGTCTCGTCAGCACAT … CCGTAGAGCACTCAGGTC
Residues (chain): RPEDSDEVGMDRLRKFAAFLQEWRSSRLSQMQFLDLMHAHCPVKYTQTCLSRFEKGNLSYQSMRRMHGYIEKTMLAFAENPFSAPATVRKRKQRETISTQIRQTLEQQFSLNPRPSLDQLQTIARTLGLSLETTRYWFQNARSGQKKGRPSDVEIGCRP
GCTCTG: 1.07 ln ratio
GCAGGG: 1.22 ln ratio
ATAGAT: 1.08 ln ratio
CGGGAT: 1.57 ln ratio
GCGGCT: 1.49 ln ratio
GCTATC: 1.16 ln ratio
GCTAAG: 1.28 ln ratio
GCAAAA: 0.892 ln ratio

Study 2 — method: protein-binding microarray; molecule type: double-stranded DNA, one strand shown; sample: in vitro; tested at: not given; direction: higher = stronger binding; quantity: E-score
Target: Hepatocyte nuclear factor 3-beta, forkhead domain (FOXA2, Homo sapiens, UniProt Q9Y261, residues 142-269)
Setting: k-mer, scored over probes, only values ≥0.25
Residues (chain): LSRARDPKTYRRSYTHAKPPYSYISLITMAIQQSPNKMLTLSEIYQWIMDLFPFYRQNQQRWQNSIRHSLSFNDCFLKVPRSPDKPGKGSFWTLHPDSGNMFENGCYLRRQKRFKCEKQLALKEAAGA
AACTATAG: 0.259
ATGTATTA: 0.365
ATCAATAC: 0.287
ATACATAT: 0.412
ACGTTAAA: 0.29
TATATGCA: 0.298

Study 3 — method: EMSA with sequencing; molecule type: double-stranded DNA, one strand shown; sample: in vitro; tested at: 10 and 20 nM; reference: negative control set to 0; direction: higher = stronger binding; quantity: normalised bound fraction
Target: Hepatocyte nuclear factor 3-alpha (Foxa1, Mus musculus, UniProt P35582, residues 1-468, full length assumed)
Setting: whole designed probe, mean of two concentrations, ends assumed
Constant ends, left off below: GTGAGCGGTGCCCATTGATGGGGAAC … TTTCACTGGGATCGTGGGGAC
GCGACGGCGCCCAATGAGCGGCCAGGATGTTGGAGCGCCGGCGGCGGTCCGGGCGCTCGCTGGCTGAGGGACGGCGGCCGCCGCGTTGATGCTTGTTTGCTTTCAATGAAAACGAGGGGGGCGCGGAGGAGGAGGCGGCGGCGTCGGTGGCGGCGGCGACGGCGGCGCGGAGGCGAAGGCAGCGGCGGGCGCA: 0.174 ratio
AGGTTAAAGATTACATTCTAACCACACACCAGTCATACTCTGCTCCGGGAAAAACCTTAAGTACTTGTGAGCATCTGTCCCTAACTTAGATGTTGTTTACTTTCAGTTTACATACAGTGCAAACACCAGGGTGTACATGATTTTCAAGTCAAAAAAGATAAGGACTAATCCAGAAAGGAGAAGGAATTCTGTT: 0.372 ratio
GCTGAAGAAGTATTCCACATCCGTCCAAGTGGACTATTCACTTAAGAAAACATTAATGCCATTTGCTGGCACAGATGCCCTTGCATGGCTCATTGTTTACATACTGAAAAACATCTAGCTCCACTGAGCTTTTAAAATTAACTAGAGCCCTTGAACTGTCCAGGCAAAGAGAAAATCATCAGTAATATTTAAA: 0.454 ratio
GGGACTGTTTACTCTCTGTACAGAGTAAGCCCCAGGGACTTTTCTGGTTGCAAAAGTAATCCTGGTACTTTCTGGATTTTCACTAGATTAAAGTAAACAAGAACAATATAACAGGCAAACTCCTTAAGTTAGACATCACTTACACATATCATAAGAGGAAAATAATTTATAAATGTTCCCAAATTTTCCTCCA: 0.461 ratio
ATCTTCCCCCTCTTCCTTGCCCCACCAGCTCACCTACGGGGGTTATTTGCAGATAGGAAAATAAATAAAGCCGGCATTCGTTAACGCAGTTCTGGCGCAAACTGCTGTTTGCTCTGGATCTAACATGGTCCTTTGGCGACGCCAGGCTCCGGGAGAGCAAAGCACCGTGTCAGGGCCATGATCCGGGGTGGCC: 0.346 ratio

Mixed results
PhoQ, residues 284 288 289 292 302 303 SMMNNA
fold induction (PhoP, residues 12 14 15 18 19 HEGLL (Escherichia coli, UniProt P23836); Sort-seq, measured: YFP reporter; E. coli; PhoQ-PhoP variant library, together with: 10 µM Mg2+; reference: high Mg2+ state, higher = stronger signaling): 4.22

Repeated from above (study 2):
ATCAATAC: 0.287
